# Experimental data from different studies.
# Numbers after ± are the reported error.
SMILES,cell line,test,conditions,IC50
COc1ccc2cc([C@H](C)C(=O)[O][Pt]([NH2])([NH2])([Cl])([Cl])[O]C(=O)[C@@H](C)c3ccc4cc(OC)ccc4c3)ccc2c1,CT26,"cell growth, MTT",48 h,0.32 ± 0.07 µM
COC(=O)[C@H]1[C@H]2C[C@H]3O[C@@]4(CCN3C[C@H]2C[C@@H](OC(=O)c2cc(OC)c(OC)c(OC)c2)[C@@H]1OC)C(=O)Nc1cc(OC)c(Br)cc14,NALM-6,"cell growth or viability, trypan blue",72 h,4.02 µM
C=CC(=O)N1CCC(c2c(-c3ccc(OC)cc3)c3c(N)ncnc3n2C)C1 (centres unmarked),JMSU-1,"cell growth or viability, ATP luminescence",96 h,0.96 µM
N=C(N/N=C/c1ccc2ccc3cccc4ccc1c2c34)N/N=C/c1ccc2ccc3cccc4ccc1c2c34,hTERT-HPNE,"cell growth, crystal violet",72 h,284 ± 54 µM
Cc1c(C)n(-c2c(C(C)C)cccc2C(C)C)c(=[Se])n1-c1c(C(C)C)cccc1C(C)C.[Cl][Ag],H157 lung carcinoma cells,"cell viability, MTT",72 h,1 ± 0.4 µM
COC(=O)CNc1cc(CS(=O)(=O)c2ccc3ccccc3c2)ccc1OC,SCC-15,"cell growth or viability, MTS",48 h,0.154 µM
COc1cc(-c2coc3cc(O)cc(O)c3c2=O)ccc1O,KKU100,"cell growth or viability, MTT",24 h,> 100 µM
Cc1ccnc(Oc2ccc(-c3c(-c4ccc(NC(=O)C(C)C)cc4)n(C)c4ncnc(N)c34)cc2F)n1,JMSU-1,"cell growth or viability, ATP luminescence",96 h,9.65 µM
COC(=O)[C@@H]1[C@@H](OC)[C@H](OC(=O)c2cc(OC)c(OC)c(OC)c2)C[C@@H]2CN3CC[C@]4(O[C@@H]3C(=O)[C@@H]21)C(=O)Nc1cc(OC)ccc14,NALM-6,"cell growth or viability, trypan blue",72 h,3.68 µM
O=C(N[c-]1cccc1)OCc1ccc(F)cc1.[Fe+2].c1cc[cH-]c1,BL2,"cell growth or viability, MTT",48 h,17.9 µM
CC(C)C1OC(=O)C(NC(=O)c2cccc(O)c2)C(C)OC(=O)C(C(C)C)OC(=O)C(C)(C)C(=O)C(Cc2ccccc2)OC1=O (centres unmarked),HCT-8,"cell viability, CCK-8",72 h,> 20 µM
N[C@@H](CNC(=O)c1ccc2[nH]c(C(=O)c3ccc(O)cc3)nc2c1)C(=O)O,SNU-1 (KRAS G12D),"cell viability, CellTiter-Glo",72 h,> 300 µM
Cc1cc(C=O)cc(C)c1Oc1cc(Nc2ccc(C#N)cc2)nc2ccncc12,S102,,48 h,> 127 µM
O=C1CC[C@H](N2Cc3cc(-c4ccn5ncc(Br)c5n4)ccc3C2=O)C(=O)N1,MOLM-13,"cell growth, CellTiter luminescence",72 h,0.013 µM
Cc1cc(C=O)cc(C)c1Oc1cc(Nc2ccc(C#N)cc2)nc2cnccc12,S102,,48 h,> 127 µM
O=C(/C=C/c1cccc(S(=O)(=O)Nc2ccc(Cl)cc2F)c1)NO,MOPC-315,cell growth,24 h,1.03 ± 0.469 µM
CSc1nc(Nc2ccc(/C(C)=N/NC(=O)c3ccc([N+](=O)[O-])cc3[N+](=O)[O-])cc2)c(C#N)c(-c2ccccc2)n1,HCT-116 and MCF7,"cell growth, MTT",range over compound group,1.14 to 10.3 µM
[Ru+2].c1ccc(-c2cccc(-c3ccccn3)n2)nc1.c1ccc(-c2ccccn2)nc1.c1cnccn1,HL-60,cell viability,together with: light 22 J/cm^2,> 100 µM
COc1ccc(-c2nn(-c3ccccc3)cc2/C=C(\C#N)c2nc3ccccc3[nH]2)cc1,ASPC1,"cell growth or viability, ATP luminescence",72 h,62.4 µM
CC(C)(CCCC/C=C/CCCCCC(C)(C)C(=O)O)C(=O)O,mouse primary hepatocytes,"fatty acid synthesis, inhibitor","4 h, together with: [14C]citrate incorporation",13.3 ± 1.89 µM
O=C(CN1C(=O)S/C(=C\c2ccccc2Br)C1=O)Nc1ccc(C(=O)Nc2ccc(F)cc2)cc1,"HT-29, A549, HCT-116","cell growth, MTT",range over cell lines,9.17 to 47.2 µM
Fc1ccccc1/C=C/c1nc2ccccc2nc1N1CCOCC1,B16-F10,"cell growth or viability, MTT",72 h,1.18 µM
CN1CCC2(CC1)C/C(=N\NC(=O)Nc1ccc(Cl)cc1)c1ccccc1O2,"MCF7, HCT-116, PC-3, A549","cell growth, MTT",range over cell lines,2.58 to 8.03 µM
Cc1nn(-c2ccc(S(=O)(=O)N[C@@H](CO)CC(C)C)cc2)c2nn3nnnc3nc12,HT-29,"cell growth or viability, MTT",72 h,0.22 µM
O=C1CC[C@H](N2Cc3cc(-c4cnn5ccc(NCCN6CCOCC6)nc45)ccc3C2=O)C(=O)N1,MOLM-13,"cell growth, CellTiter luminescence",72 h,> 0.1 µM
CC(=O)OC1CC2C(C)(C)C(O)CCC2(C)C2CCC34CC3(CCC4C(C)CC3OC(C)(C)OC(C)(C)C3O)C12C (centres unmarked),SCM-1,"cytotoxicity, MTT",,11.7 ± 1.5 µM
COc1c(O)c(Br)c2oc3c(Br)c(O)c(CC=C(C)C)c(O)c3c(=O)c2c1CC=C(C)C,BEAS-2B,cell growth or viability,,21.8 µM
C=C(C)[C@H]1CC[C@@]2(C)CC[C@]3(C)C[C@H]4[C@@H](C)CC[C@H]4/C(C)=C\C[C@H]3[C@H]12,CT26,"cell growth or viability, MTT",72 h,409 µM
N=C(N/N=C/c1cncnc1)N/N=C/c1cncnc1,hTERT-HPNE,"cell growth, crystal violet",72 h,398 ± 55.7 µM
CC(C)=CCC1=C([O-])C(=O)c2ccccc2C1=O.O=[N+]([O-])[O-].[Cu+2].c1ccc(-c2cccc(-c3ccccn3)n2)nc1,A2780R cisplatin-resistant,"cell viability, MTT",24 h,19.5 ± 2.6 µM
CN1CCC2(CC1)C/C(=N\NC(=O)Nc1ccccc1)c1ccccc1O2,"MCF7, HCT-116, PC-3, A549","cell growth, MTT",range over cell lines,1.15 to 9.09 µM
CSCC[C@H](NC(=O)[C@H](Cc1ccc(OP(=O)(O)O)cc1)NC(=O)CNC(=O)CNC(=O)[C@H](CC(=O)O)NC(=O)[C@H](CO)NC(=O)[C@H](CCC(=O)O)NC(=O)CN)C(=O)N[C@@H](CC(=O)O)C(=O)N[C@@H](CCSC)C(=O)N[C@@H](CO)C(=O)N[C@@H](CCCCN)C(=O)N[C@@H](CC(=O)O)C(=O)N[C@@H](CCC(=O)O)C(=O)N[C@@H](CO)C(=O)N[C@@H](CCCCNC(=O)CNC(=O)[C@H](CCCCN)NC(=O)[C@H](CCCNC(=N)N)NC(=O)[C@H](Cc1ccccc1)NC(=O)[C@H](CCCNC(=N)N)NC(=O)[C@H](CCCNC(=N)N)NC(=O)[C@H](CCCNC(=N)N)NC(=O)[C@H](CO)NC(=O)[C@H](Cc1ccc(O)cc1)NC(=O)[C@H](CO)NC(=O)[C@H](CC(C)C)NC(=O)[C@H](CCCNC(=N)N)NC(=O)[C@@H](N)CCCNC(=N)N)C(N)=O,HPASMC,"PDGF-induced ERK phosphorylation, inhibitor, Western blot, item: phospho-ERK1/2","30 min preincubation, serum-free medium, together with: PDGF 1 ng/mL, 10 min",24.4 µM
COc1cc(/C=C/C=O)ccc1O,SCM-1,"cytotoxicity, MTT",,> 30 µM
O=[N+]([O-])c1ccc(C=[N+]2N=C(Nc3ccccc3)[S][Pt-]2([Cl])[Cl])s1,HEL human lung fibroblasts,cell proliferation,,3.1 µM
Cc1cc(-c2ccccc2)c2ccc3c(-c4ccccc4)cc(C)nc3c2n1.[Cl-].[Cl-].[Ru+2].c1ccc(-c2ccccn2)nc1.c1ccc(-c2ccccn2)nc1,rat bone marrow MSCs,cell viability,blue LED 100 mW/cm^2,0.024 ± 0.002 µM
CC(=O)Oc1ccc(/C=C/C(=O)Nc2nc(=O)n([C@@H]3O[C@H](C)[C@@H](OC(C)=O)[C@H]3OC(C)=O)cc2F)cc1OC(C)=O,ASPC1,"cell growth or viability, MTT",72 h,90.1 µM
CCOC(=O)c1[nH]c(C)c(/C=C/c2c(I)c(C)c3n2[B-](F)(F)[N+]2=C(C)C(I)=C(C)C2=C3c2cc(OC)cc(OC)c2)c1C,HEp-2,"phototoxicity, CellTiter-Blue",together with: light 1.5 J/cm^2,4 µM
O=C1c2ccccc2C2C(=O)c3ccccc3OC12 (centres unmarked),HDFn,"cell viability, PrestoBlue",96 h,21.8 µg/mL
c1ccc(-c2cn(-c3ccc(-c4cc(-c5ccccn5)nc(-c5ccccn5)c4)cc3)nn2)cc1,NHDF normal human fibroblasts,"cytotoxicity, MTS",72 h,> 25 µM
C[C@@H](NC(=O)Cc1ccc(Cl)c(SC2C(=O)CC(c3c(Cl)cccc3Cl)CC2=O)c1)c1cccc2ccccc12 (some centres unmarked),B16-F10,"cell growth or viability, SRB",72 h,23 µM
Cc1ccc(NS(=O)(=O)c2cccc(/C=C/C(=O)NO)c2)cc1,MOPC-315,cell growth,24 h,0.159 ± 0.046 µM
COc1cc(OC)cc(C2=C3C(C)=C(I)C(/C=C/c4cccs4)=[N+]3[B-](F)(F)n3c(/C=C/c4cccs4)c(I)c(C)c32)c1,HEp-2,"cell growth or viability, resazurin","24 h, dark",> 400 µM
O=[N+]([O-])c1ccc(C=[N+]2N=C(Nc3ccccc3)[S][Pd-]2([Cl])[Cl])s1,HEL human lung fibroblasts,cell proliferation,,14.6 µM
CC(C)c1cccc(C(C)C)c1-n1c(Cl)c(Cl)n(-c2c(C(C)C)cccc2C(C)C)c1=[Se].[Cl][Au],H157 lung carcinoma cells,"cell viability, MTT",72 h,1.3 ± 0.4 µM

# Some of these lines once more:
SMILES,cell line,test,conditions,IC50
N=C(N/N=C/c1cncnc1)N/N=C/c1cncnc1,hTERT-HPNE,"cell growth, crystal violet",72 h,398 ± 55.7 µM
O=[N+]([O-])c1ccc(C=[N+]2N=C(Nc3ccccc3)[S][Pt-]2([Cl])[Cl])s1,HEL human lung fibroblasts,cell proliferation,,3.1 µM
COc1cc(OC)cc(C2=C3C(C)=C(I)C(/C=C/c4cccs4)=[N+]3[B-](F)(F)n3c(/C=C/c4cccs4)c(I)c(C)c32)c1,HEp-2,"cell growth or viability, resazurin","24 h, dark",> 400 µM
